Measured values pooled from the literature.
Numbered parts are unrelated; each lists some results of a single study.

Block 1 — technique: protein-binding microarray; form: double-stranded DNA, one strand shown; medium: in vitro; concentration: 250 nM; notes: 60-bp whole probe; together with: salmon DNA 0.4 mg/ml; reference: random background probes; reading: higher = stronger binding; measurement: log fluorescence; shared flanks, not repeated: GCCTAGCAC … GTCTTGATTCGCTTGACGCTGCTG
Target: Interferon regulatory factor 5, full length, phosphomimetic (IRF5, Homo sapiens, UniProt Q13568-2, residues 1-514, K96S/S451D/S453D/S456D/S462D)
CTCTACTTGTGTCTAGAGATGTGCTAG: -0.281 z-score
TTAGATAGCAGTCTCGATTAGTGCTAG: 0.52 z-score
GACGGTATCGACACTGGGGAAGTGCTA: 1.63 z-score
GGACCGACCCCTCCATCCCTGTGCTAG: -0.924 z-score
TTAGGTATCCTTCTACTTTAGTGCTAG: 0.314 z-score
TTAGGTTTCGGGTATCGGTAAGTGCTA: 9.73 z-score
AGAAATTTTTTTTCTAACTAGTGCTAG: 1.27 z-score
TTAGGACTAGACTATCGGTTAGTGCTA: 5.45 z-score
TCAGTTCTCCCTTTCAGTTTGTGCTAG: 2.09 z-score
TCACAAGTTTCACGTCTTACTGTGCTA: 1.83 z-score
TGTCATTTTCTCTTATTCTAGTGCTAG: 2.47 z-score
TTAGGGATCGGACTGGGTTAGTGCTAG: -0.332 z-score
GACGGTATCCGTATCGGGACGTGCTAG: 0.819 z-score
GACGGTATGCTACTGCTGACGTGCTAG: -0.567 z-score
TCAGGAAACTTAAACTAGACTGTGCTA: 0.563 z-score
GGCGGTTTCGGACTGGGGACGTGCTAG: 4.06 z-score
GACTATTTCAGTATCGAGACGTGCTAG: 3.91 z-score
TTAGGTTCCCTTTTCCTGTAGTGCTAG: 0.404 z-score

Block 2 — technique: RNA Bind-n-Seq; form: RNA; medium: in vitro; concentration: 365 nM; reference: no-protein control; reading: higher = stronger binding; measurement: RBNS enrichment (R)
Target: RNA binding protein fox-1 homolog 2, RRM domain, GST-SBP tag (RBFOX2, Homo sapiens, UniProt O43251-10, residues 100-194)
Notes: natural RNA segment, single round, ends assumed
Shared flanks, not repeated: GGGAGUUCUACAGUCCGACGAUC … UGGAAUUCUCGGGUGCCAA
Residues (chain): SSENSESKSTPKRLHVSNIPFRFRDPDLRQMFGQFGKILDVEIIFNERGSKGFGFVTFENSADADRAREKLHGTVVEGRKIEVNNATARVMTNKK
AGCCCUUUAAGGAAAAGAUCAGUGUCCUGCACCCCUGGGGCAAAUGACAAGGGUAUUAUCAUGGAGUUCUGCCUAUUCCUACUGGUGUCCACCAGUCACACAUUUGGAAU: 0.345
UCUGGUGGGAAGACAUGCCAGUGUUGGCCAUUGUCUCCCAUUCCAAAGAGAAUAACUUUGAACUGAGGGUGUGUAUCAGAGUAUGUACAUAUGUAAUAUACCCUUAUAUU: 0.424
UUUCAUAAUCGAUGUGGUCUACUAAGAAAGAUAACAAUUUGUGCUAAAAUGCCCAUGUUUACCUGUAUUGACCAAAGCUUUCAGUUGUUCUUCAUUCUGUGCUCAGGAUU: 0.328
UUCUGAGCAAACAAAUGUGCUCCAUUCUUUUCCUCCAUGCUCCUAGCGCAGAAUGUUUUCUUGCAGAGCCUAGAGUACUUUGUUAAUGUUCUUCCGUUUGCUGCAACGAU: 0.496
AGGGCUACCACAUUGACCCAGAUGGUAUCUCCUCUCACCAUUCAGACAUCCAUAAGGAAUGCCAAAUGCUGUAUUGAAUAGUUCUCCUGUGUGACUUUCUAGAGAAGCCA: 0.569
UGCUUUAAGUUGACUCUUUCUUCCUCCCUUCUCCCUCCAGACCUGUUCCUACCCUUGCUGAACAGCACAAGAUGGGUGGGUCGGGGGCUAUCAAGGCCACUGUGGUAGUG: 0.422
UGCAGCUUCCACGGAAUCCCUCCCUCACUGCCAGAGCAGCAUCUUCUCUGUGUACCACCUCUGCUGUCUCAGAUGCCCCCAGCAAAUAAACACUCUUCUCGUUGGUCAGA: 1.85
GCCGUGGAAAACCUUUUCAGAAACUACAUUCAUUGUUCUUUAAGCAGACCAAAAGUCACAACAGUGGCAGGCAGGCUGCAUGCUUUUUGUAUCGCUCACGAUGCACUGUG: 0.948
UUCUGCACCAGACAACCUGUUGAGGCGUAUAACCUGAUCUGUACAUUUUUUUAAGUGUGCAGGGCAGCCUGGACACAGCUUAGCGUUCUACGUGUAUAGUUCUCCAUGCU: 0.202
ACAUUAAUCAGGAAUACAGAAUGCAGGUCUUCACAUUUACAGGAAGAGCACCUUGUAUAGUAGGUCUGAGUCAAAUAGGACUGAAUUGGUGACAAAGUUUGCACUUACAA: 0.317
GUCUCUUGUCAAUCCACAAGAACAAUGCAAAGUUAUGUUUGGGAACACUACAGGAAUAUGUAAUUGUUUCUUGCAGAAGUCUUAAGUCCACCCAAUAAUAAGAUCAGAAG: 0.412
ACUCUUGGCGGAUCGGUCCAGUGGGUAGAGGGUUUGAUCAACAGAGCCUCACCCUCUCCACCUUUCAGCCUCCAGAGACUUUGGGGAGGGGGUUAAUCAACCCCGCGUGU: 0.181

Block 3 — technique: aptamer microarray, sandwich; form: DNA with 2'F-ANA; medium: in vitro; concentration: 200 nM; together with: Cy3 exosite-II aptamer, 400 nM; reading: higher = stronger binding; measurement: mean fluorescence intensity; strand: GGTTGGTGTGGTTGG
Target: Prothrombin, mature alpha-thrombin (F2, Homo sapiens, UniProt P00734)
Notes: whole 15-mer aptamer, many near background
2'F-ANA at 2 3 6 12 14 15: 435 a.u.
2'F-ANA at 1 4 6 7 10 11 12 13 15: 49.9 a.u.
2'F-ANA at 3 6 9 11 12 14: 545 a.u.
2'F-ANA at 4 5 9 10 11: 123 a.u.
2'F-ANA at 1 2 10 11 13 15: 51.6 a.u.
2'F-ANA at 7 8 9 10 15: 164 a.u.
2'F-ANA at 1 3 6 7 10 11 14 15: 58.1 a.u.
2'F-ANA at 3 5 7 8 11 12 15: 237 a.u.
2'F-ANA at 3 4 5 6 7 8 11 12 13 14: 85.5 a.u.
2'F-ANA at 1 2 3 4 5 6 7 9 10 12 13 14: 46.1 a.u.
2'F-ANA at 4 10 13 15: 88.8 a.u.
2'F-ANA at 3 4 5 6 7 8 9 12: 212 a.u.
2'F-ANA at 1 2 8 12: 469 a.u.
2'F-ANA at 3 4 6 7 9 10 11 12 14: 174 a.u.
2'F-ANA at 1 2 3 5 6 7 8 9 10 11 12 13 15: 54.9 a.u.
2'F-ANA at 1 5 6 7 8 13 15: 48.2 a.u.

Block 4 — technique: protein binding microarray; form: double-stranded DNA, one strand shown; medium: in vitro; concentration: not given; reference: not given; reading: higher = stronger binding; measurement: E-score
Target: Histone acetyltransferase KAT6A, winged helix 2, GST fusion (KAT6A, Homo sapiens, UniProt Q92794, residues 85-181)
Notes: 8-mer, flanks averaged, mean of 2 arrays, mostly near background
Construct (chain): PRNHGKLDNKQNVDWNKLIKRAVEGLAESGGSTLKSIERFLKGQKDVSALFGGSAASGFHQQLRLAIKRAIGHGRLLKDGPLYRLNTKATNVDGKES
CCTTGGGC: 0.0641
CGCAACGC: 0.177
AGCAGTAT: 0.0584
TCCCTCGA: -0.0121
ACCGCTCG: -0.125
CGTCTGTC: 0.0187
GACTCTTA: -0.129
AAACAAGG: -0.0451
ATCCGAAC: -0.0043
ACACCAAA: 0.0738
AACCACCA: -0.122
ACGTCCGC: 0.00176
AAGGGGAC: -0.0824
GACGACTC: -0.171
GCTCCTGA: 0.0625
CTAAGAAC: 0.107
ACCTATGA: -0.268

Block 5 — technique: RNA Bind-n-Seq; form: RNA; medium: in vitro; concentration: 1 µM; notes: whole 134-nt RNA, ends assumed; together with: 150 mM KCl; reference: input library; reading: higher = stronger binding; measurement: log2 enrichment
Target: Ras GTPase-activating protein-binding protein 1, C-terminal RGG region (G3BP1, Homo sapiens, UniProt Q13283)
Chain of UniProt Q13283 (whole entry, looked up): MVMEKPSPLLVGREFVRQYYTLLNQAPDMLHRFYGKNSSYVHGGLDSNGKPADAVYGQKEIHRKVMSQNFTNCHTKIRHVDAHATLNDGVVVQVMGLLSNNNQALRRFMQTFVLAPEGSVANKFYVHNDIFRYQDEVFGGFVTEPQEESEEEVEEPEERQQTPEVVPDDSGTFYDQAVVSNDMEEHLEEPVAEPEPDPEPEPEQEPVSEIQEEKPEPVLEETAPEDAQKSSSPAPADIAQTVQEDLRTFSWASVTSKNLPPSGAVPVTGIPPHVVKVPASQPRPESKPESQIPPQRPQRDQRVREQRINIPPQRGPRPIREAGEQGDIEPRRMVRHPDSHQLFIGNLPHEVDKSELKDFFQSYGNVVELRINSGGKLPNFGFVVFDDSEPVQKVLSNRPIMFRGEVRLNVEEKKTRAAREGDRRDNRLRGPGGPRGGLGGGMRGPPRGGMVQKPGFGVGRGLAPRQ
Shared flanks, not repeated: GGGAGUUCUACAGUCCGACGAUC … UGGAAUUCUCGGGUGUCAAGG
GCAGGAAGUAAAAACAAAUGGAAAUGCUUCGGAUAGUGGCAGGGGUGGGGGUAGCUAAGGAAAGGGUGGGAUGGGAGUGGGUAAAGAGUU: 0.539
UAACUUUAGAGGAGGAUCUGAUGGAUAUGGCAGUGGACGUGGCUUUGGGGAUGGCUAUAAUGGGUAUGGAGGAGGACCUGGAGGUGGCAA: -0.948
UCAAGUCCUGUGCUACACAUCGUAUGUACCGAAUCGGGGUUUGGUUUGGUUUGGAAAGUAUUAUGUUACGCCGUUCGGAUCUGCACUUCC: -0.546
UGGGAGGUGGAUUUUGUUUAUUUUUUUAGCUCAUUUCCAGGGGUGGGAAUUUUUUUUUAAUCUGUGUCAUGAAUAAAGUUGUUUUUGAAA: 3.72
UCAAGUCCUGUGCUACACAUCGUAUGUACCGAAUCGGGGCCGGGGCCGGGGCCGGAAAGUAUUAUGUUACGCCGUUCGGAUCUGCACUUC: -2.66
CCUCAGUGUCAUUUAUGAAAAGAGGGGACCAGAAGCCAAAGACUUAGUAUAUUUUCUUUUCCUCUGUCCCUUCCCCCAUAAGCCUCCAUU: -0.891
UUUGAAAAAGAAGAAAAAGAAAAAGAAGGGUAAGGCAUUAAAAAAGUCUUUAUAAAUUUUCUCCAAAAUAAAUGUUUGAUUUUAGCCCUA: -1.82
UCCUGUGCUACACAUCGUAUGUACCGAAUCGGAAAAAAGGAAAAAAGGGGAAAAAAGGGGAAAGUAUUAUGUUACGCCGUUCGGAUCUGC: -1.48
UCCUGUGCUACACAUCGUAUGUACCGAAUCGGUUUUUUGGGUUUUUUGGGGUUUUUUGGAAAGUAUUAUGUUACGCCGUUCGGAUCUGCA: -0.739
CUGUGCUACACAUCGUAUGUACCGAAUCAAAUUUUUUUAAAUUUUUUUAAACCCCCCCAAAAAAGUAUUAUGUUACGCCGUUCGGAUCUG: -0.847
GUCCUGUGCUACACAUCGUAUGUACCGAAUCGGGAAAAAGGGAAAAAGGGUUUUUGGGAAAGUAUUAUGUUACGCCGUUCGGAUCUGCAC: -0.186
UCCUGUGCUACACAUCGUAUGUACCGAAUCAAAUUUAAACCCCCCCAAACCCCCCCAAAAAAGUAUUAUGUUACGCCGUUCGGAUCUGCA: -0.59
GUCCUGUGCUACACAUCGUAUGUACCGAAUCGGGGCCCCCGGGCCCCCGGGGCCCCCGGAAAGUAUUAUGUUACGCCGUUCGGAUCUGCA: -2.23
AGUCCUGUGCUACACAUCGUAUGUACCGAAUCAAACCCAAAUUUUUUUAAAUUUAAAAAAGUAUUAUGUUACGCCGUUCGGAUCUGCACU: -1.34
